Results gathered from unrelated publications.
Numbered parts are unrelated; each lists some results of a single study.
Chain of UniProt O00506 (whole entry, looked up): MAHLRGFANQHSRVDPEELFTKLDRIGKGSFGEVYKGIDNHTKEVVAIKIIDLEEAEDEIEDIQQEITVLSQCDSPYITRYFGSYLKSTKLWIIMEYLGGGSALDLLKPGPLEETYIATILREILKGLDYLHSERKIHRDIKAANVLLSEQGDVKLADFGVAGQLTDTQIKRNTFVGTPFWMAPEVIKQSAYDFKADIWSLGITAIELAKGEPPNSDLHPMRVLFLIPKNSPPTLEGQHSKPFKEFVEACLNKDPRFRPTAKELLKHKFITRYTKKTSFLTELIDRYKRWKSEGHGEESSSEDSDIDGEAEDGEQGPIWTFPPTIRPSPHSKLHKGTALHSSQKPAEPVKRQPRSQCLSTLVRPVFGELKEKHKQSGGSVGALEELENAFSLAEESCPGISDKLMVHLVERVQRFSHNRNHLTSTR
Chain of UniProt P22607 (whole entry, unmodified, looked up): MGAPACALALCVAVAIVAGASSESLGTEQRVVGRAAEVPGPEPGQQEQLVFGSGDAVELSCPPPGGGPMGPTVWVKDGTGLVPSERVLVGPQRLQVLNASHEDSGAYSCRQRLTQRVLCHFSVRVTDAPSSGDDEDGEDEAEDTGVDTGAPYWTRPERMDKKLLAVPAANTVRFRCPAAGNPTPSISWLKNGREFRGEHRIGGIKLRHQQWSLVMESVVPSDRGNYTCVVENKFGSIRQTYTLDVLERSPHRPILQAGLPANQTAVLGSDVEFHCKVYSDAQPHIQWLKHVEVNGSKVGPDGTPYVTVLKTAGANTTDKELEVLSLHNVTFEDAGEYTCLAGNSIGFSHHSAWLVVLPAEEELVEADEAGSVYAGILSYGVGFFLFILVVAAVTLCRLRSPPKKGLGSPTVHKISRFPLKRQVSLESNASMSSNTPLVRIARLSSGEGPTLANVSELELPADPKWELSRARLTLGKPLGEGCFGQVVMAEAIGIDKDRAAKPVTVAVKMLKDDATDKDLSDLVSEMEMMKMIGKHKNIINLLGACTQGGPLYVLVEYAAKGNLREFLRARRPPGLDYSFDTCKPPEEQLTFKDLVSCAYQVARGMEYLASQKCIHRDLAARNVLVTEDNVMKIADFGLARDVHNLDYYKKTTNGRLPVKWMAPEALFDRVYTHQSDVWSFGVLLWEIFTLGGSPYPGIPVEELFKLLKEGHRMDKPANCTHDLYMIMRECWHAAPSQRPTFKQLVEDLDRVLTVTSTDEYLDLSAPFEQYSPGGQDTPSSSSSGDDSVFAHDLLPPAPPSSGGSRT
Chain of UniProt Q8TD19 (whole entry, looked up): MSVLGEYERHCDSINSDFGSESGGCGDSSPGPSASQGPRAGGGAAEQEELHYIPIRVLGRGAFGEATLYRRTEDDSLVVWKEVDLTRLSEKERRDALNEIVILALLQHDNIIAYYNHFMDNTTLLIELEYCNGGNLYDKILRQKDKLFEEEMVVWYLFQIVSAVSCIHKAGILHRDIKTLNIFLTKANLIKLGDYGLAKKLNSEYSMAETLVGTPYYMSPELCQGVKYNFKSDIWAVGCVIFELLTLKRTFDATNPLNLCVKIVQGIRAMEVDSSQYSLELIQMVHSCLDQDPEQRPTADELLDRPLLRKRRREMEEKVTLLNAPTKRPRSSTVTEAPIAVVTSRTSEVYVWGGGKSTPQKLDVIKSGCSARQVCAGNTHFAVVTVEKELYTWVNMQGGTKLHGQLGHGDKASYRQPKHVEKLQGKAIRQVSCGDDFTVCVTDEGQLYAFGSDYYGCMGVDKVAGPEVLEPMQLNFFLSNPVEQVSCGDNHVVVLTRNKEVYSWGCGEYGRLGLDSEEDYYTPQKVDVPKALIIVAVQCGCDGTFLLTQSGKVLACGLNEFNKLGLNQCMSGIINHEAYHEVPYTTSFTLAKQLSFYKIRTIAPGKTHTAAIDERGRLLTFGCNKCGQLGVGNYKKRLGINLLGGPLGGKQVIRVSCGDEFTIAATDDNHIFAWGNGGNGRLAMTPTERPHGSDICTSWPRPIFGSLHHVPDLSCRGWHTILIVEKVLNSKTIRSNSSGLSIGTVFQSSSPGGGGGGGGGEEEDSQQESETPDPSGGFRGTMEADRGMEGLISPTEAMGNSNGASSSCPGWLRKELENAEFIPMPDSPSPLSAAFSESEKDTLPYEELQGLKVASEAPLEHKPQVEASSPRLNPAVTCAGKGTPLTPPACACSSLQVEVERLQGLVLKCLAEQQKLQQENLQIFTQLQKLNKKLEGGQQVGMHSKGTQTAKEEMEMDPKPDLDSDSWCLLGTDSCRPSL
Chain of UniProt P45984 (whole entry, looked up): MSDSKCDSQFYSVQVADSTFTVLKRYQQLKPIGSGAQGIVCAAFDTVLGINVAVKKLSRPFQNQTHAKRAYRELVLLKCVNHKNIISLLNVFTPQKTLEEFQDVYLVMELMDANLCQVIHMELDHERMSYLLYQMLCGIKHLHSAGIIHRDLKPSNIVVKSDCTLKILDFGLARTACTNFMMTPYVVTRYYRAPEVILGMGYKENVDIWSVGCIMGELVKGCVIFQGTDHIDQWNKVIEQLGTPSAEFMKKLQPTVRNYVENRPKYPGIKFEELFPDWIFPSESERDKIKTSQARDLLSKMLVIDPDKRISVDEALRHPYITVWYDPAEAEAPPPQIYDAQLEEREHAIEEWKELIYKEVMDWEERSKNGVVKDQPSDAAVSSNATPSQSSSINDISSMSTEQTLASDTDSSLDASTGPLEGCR
Chain of UniProt P15735 (whole entry, looked up): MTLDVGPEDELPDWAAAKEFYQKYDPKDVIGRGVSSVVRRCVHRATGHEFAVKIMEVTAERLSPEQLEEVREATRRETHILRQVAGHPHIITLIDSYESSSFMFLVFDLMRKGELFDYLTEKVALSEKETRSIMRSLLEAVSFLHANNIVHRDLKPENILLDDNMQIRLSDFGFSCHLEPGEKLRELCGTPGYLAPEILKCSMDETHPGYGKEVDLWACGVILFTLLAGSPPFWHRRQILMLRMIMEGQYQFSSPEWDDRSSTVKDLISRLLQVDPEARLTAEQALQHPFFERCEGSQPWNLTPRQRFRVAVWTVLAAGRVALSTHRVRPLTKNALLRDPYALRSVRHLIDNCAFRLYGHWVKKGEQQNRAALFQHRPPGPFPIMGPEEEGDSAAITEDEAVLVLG
Chain of UniProt Q9UHD2 (whole entry, looked up): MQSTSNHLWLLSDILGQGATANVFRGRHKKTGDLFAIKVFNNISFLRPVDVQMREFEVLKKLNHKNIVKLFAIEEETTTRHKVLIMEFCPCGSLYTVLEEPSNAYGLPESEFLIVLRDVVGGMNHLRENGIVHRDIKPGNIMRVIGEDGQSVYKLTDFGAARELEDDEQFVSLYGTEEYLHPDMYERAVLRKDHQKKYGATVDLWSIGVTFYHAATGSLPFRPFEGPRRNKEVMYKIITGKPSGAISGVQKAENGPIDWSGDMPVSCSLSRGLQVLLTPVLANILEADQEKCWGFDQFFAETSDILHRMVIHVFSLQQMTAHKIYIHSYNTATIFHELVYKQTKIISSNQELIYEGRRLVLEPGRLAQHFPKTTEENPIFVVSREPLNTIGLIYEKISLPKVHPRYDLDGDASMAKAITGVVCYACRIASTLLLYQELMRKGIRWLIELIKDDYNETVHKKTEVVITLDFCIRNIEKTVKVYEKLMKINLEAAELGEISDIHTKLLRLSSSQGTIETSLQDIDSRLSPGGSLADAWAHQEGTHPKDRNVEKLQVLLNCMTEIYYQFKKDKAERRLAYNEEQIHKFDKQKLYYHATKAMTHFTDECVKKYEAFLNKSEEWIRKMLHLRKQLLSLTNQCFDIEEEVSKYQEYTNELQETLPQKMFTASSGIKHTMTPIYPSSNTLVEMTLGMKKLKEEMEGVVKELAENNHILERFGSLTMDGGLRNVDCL
Chain of UniProt Q96PN8 (whole entry, looked up): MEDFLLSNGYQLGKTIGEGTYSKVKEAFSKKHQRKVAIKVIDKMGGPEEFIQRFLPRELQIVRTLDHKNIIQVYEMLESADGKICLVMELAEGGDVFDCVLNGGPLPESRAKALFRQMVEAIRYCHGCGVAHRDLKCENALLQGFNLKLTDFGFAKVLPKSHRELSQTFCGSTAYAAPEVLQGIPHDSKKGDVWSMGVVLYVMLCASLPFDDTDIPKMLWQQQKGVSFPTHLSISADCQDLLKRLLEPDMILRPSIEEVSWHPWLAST

Sample 1 — technique: competition with immobilised ligand; tested at: 1 µM
SMILES: NS(=O)(=O)c1cc(NC(=O)Cc2ccccc2)ccc1Oc1cccc(Cl)c1
The remaining binding was 100% (Phosphorylase b kinase gamma catalytic chain, liver/testis isoform (PHKG2, Homo sapiens, UniProt P15735); cell-free assay).
The remaining binding was 96% (Serine/threonine-protein kinase pim-3 (PIM3, Homo sapiens, UniProt Q86V86); cell-free assay).
Serine/threonine-protein kinase WNK2 (WNK2, Homo sapiens, UniProt Q9Y3S1); cell-free assay — remaining binding: 0%.
For Mitogen-activated protein kinase kinase kinase 10 (MAP3K10, Homo sapiens, UniProt Q02779); cell-free assay: remaining binding read 98%.
The remaining binding was 93% (Protein kinase C eta type (PRKCH, Homo sapiens, UniProt P24723); cell-free assay).
Ribosomal protein S6 kinase alpha-1, N-terminal kinase domain (RPS6KA1, Homo sapiens, UniProt Q15418); cell-free assay — remaining binding: 91%.
For Tyrosine-protein kinase ABL1, phosphorylated (ABL1, Homo sapiens, UniProt P00519, E255K); binding: remaining binding read 69%.
The remaining binding was 67% (Non-receptor tyrosine-protein kinase TYK2, JH2 (TYK2, Homo sapiens, UniProt P29597); cell-free assay).
The remaining binding was 100% (RAC-gamma serine/threonine-protein kinase (AKT3, Homo sapiens, UniProt Q9Y243); cell-free assay).
Serine/threonine-protein kinase tousled-like 1 (TLK1, Homo sapiens, UniProt Q9UKI8); cell-free assay — remaining binding: 99%.
It gave 83% for remaining binding (Serine/threonine-protein kinase Nek9 (NEK9, Homo sapiens, UniProt Q8TD19); cell-free assay).
Serine/threonine-protein kinase mTOR (MTOR, Homo sapiens, UniProt P42345); cell-free assay — remaining binding: 92%.
It gave 100% for remaining binding (G protein-coupled receptor kinase 4 (GRK4, Homo sapiens, UniProt P32298); cell-free assay).
It gave 68% for remaining binding (Serine/threonine-protein kinase TBK1 (TBK1, Homo sapiens, UniProt Q9UHD2); cell-free assay).
It gave 88% for remaining binding (Tyrosine-protein kinase ABL1, phosphorylated (ABL1, Homo sapiens, UniProt P00519, T315I); cell-free assay).
The remaining binding was 72% (Tyrosine-protein kinase ABL1, phosphorylated (ABL1, Homo sapiens, UniProt P00519, F317L); cell-free assay).
Fibroblast growth factor receptor 3 (FGFR3, Homo sapiens, UniProt P22607, G697C); cell-free assay — remaining binding: 100%.
For Serine/threonine-protein kinase 25 (STK25, Homo sapiens, UniProt O00506); cell-free assay: remaining binding read 88%.
The remaining binding was 87% (Testis-specific serine/threonine-protein kinase 3 (TSSK3, Homo sapiens, UniProt Q96PN8); cell-free assay).
It gave 83% for remaining binding (Mitogen-activated protein kinase 9 (MAPK9, Homo sapiens, UniProt P45984); cell-free assay).
The remaining binding was 82% (5'-AMP-activated protein kinase catalytic subunit alpha-2 (PRKAA2, Homo sapiens, UniProt P54646); cell-free assay).
Serine/threonine-protein kinase 33 (STK33, Homo sapiens, UniProt Q9BYT3); cell-free assay — remaining binding: 100%.

Sample 2 — observed: enzyme activity; action: inhibitor; tested at: 0.5 µM; relative to: control
Target: Ephrin type-A receptor 7 (EPHA7, Homo sapiens, UniProt Q15375)
Chain of UniProt Q15375 (whole entry, looked up): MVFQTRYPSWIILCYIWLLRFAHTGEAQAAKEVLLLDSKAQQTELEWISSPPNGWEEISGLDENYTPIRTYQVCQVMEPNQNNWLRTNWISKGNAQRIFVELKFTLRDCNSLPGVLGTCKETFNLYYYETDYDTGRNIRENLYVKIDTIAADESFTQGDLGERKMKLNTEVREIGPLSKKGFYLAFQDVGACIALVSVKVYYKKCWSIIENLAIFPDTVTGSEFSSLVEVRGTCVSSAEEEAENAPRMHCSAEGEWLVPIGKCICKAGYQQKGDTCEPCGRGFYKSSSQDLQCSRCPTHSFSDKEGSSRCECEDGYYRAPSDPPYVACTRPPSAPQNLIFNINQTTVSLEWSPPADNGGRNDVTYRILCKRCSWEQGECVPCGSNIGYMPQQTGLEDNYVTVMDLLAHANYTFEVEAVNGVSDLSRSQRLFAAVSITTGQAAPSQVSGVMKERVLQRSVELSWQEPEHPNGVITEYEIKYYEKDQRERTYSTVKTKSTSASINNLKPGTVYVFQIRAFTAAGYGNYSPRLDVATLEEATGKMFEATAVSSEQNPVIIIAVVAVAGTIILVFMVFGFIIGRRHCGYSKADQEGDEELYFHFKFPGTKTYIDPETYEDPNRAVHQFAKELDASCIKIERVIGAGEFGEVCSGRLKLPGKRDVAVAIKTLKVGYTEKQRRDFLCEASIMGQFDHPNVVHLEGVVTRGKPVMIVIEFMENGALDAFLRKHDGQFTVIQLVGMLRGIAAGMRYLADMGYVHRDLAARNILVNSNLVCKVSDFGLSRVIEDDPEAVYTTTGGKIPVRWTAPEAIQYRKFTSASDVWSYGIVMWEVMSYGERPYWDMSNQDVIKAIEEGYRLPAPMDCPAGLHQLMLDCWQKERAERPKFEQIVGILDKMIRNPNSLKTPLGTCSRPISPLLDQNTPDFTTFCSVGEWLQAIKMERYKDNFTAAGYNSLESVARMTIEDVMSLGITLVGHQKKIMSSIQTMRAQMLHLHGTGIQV
`CS(=O)(=O)CCNCc1ccc(-c2ccc3ncnc(Nc4ccc(OCc5cccc(F)c5)c(Cl)c4)c3c2)o1` gave a remaining activity of 95.6%.
`CCN1/C(=C/C(C)=O)Sc2ccc(OC)cc21` gave a remaining activity of 95.8%.
The remaining activity of `COc1cc2ncc(-c3ccccc3)nc2cc1OC` is reported as 94.7%.
`Cc1nc(Nc2ncc(C(=O)Nc3c(C)cccc3Cl)s2)cc(N2CCN(CCO)CC2)n1` gave a remaining activity of 94.3%.
For `CC(=O)O/N=C1/C(c2c(O)[nH]c3cc(Br)ccc23)=Nc2ccccc21`, the remaining activity was 97.9%.
With `Cn1cnc2cc3c(Nc4cccc(Br)c4)ncnc3cc21` the remaining activity was 72%.
`CC(C)[C@H](CO)Nc1nc(Nc2cccc(Cl)c2)c2ncn(C(C)C)c2n1` gave a remaining activity of 86.8%.
For `CC(C)c1nn(-c2c(Cl)cccc2Cl)c2nc(Cc3ccc(OCCO)cc3)[nH]c(=O)c12`, the remaining activity was 97.9%.
For `COc1ccc(Cl)cc1NC(=O)Nc1cc(C)nc2ccccc12`, the remaining activity was 99.7%.
The remaining activity of `CN(C)CCCn1cc(C2=C(c3c[nH]c4ccccc34)C(=O)NC2=O)c2ccccc21` is reported as 97%.

Sample 3 — cell line: HaCaT; tested at: 100 µM; time: 36 h
`O=c1ccn([C@@H]2O[C@H](CO)[C@@H](O)[C@H]2O)c(=O)[nH]1` gave a viability of 99.9%.
`O=C(O)[C@@H]1CSCN1` has a viability of 87.7%.
`C[C@H]1CN(C[C@H](Cc2ccccc2)C(=O)NCC(=O)O)CC[C@@]1(C)c1cccc(O)c1` has a viability of 88.6%.
`Cn1c(=O)c2c(ncn2CCO)n(C)c1=O` has a viability of 96.1%.
For `C=C1CC[C@@H]2[C@](C)(CO)[C@H](O)CC[C@@]2(C)[C@@H]1C/C=C1/C(=O)OC[C@H]1O`, the viability was 9.52%.
`O=C(c1ccc(F)cc1)C1CCN(CCn2c(=O)[nH]c3ccccc3c2=O)CC1` gave a viability of 91.5%.
`CCN(CC)CCCC(C)Nc1c2ccc(Cl)cc2nc2ccc(OC)cc12` (centres unmarked) has a viability of 5.2%.

Sample 4 — species: human; sample: microsomes or S9; tested at: 2 µM; time: 0.5 h
With `COc1cc(C(=O)Nc2ncc3c(n2)CC(c2ccc(C)cc2)CC3=O)cc(OC)c1OC` (centres unmarked) the remaining compound was 8.37%.
`CCn1nc(C)c2ncnc(NC3CCCCCC3)c21` gave a remaining compound of 26.6%.
With `CCN(CC)CCNc1c2c(nc3cc(-c4cccc(F)c4)nn13)CCCC2` the remaining compound was 0.238%.
`O=C(NCCc1c[nH]c2ccccc12)c1c(OCC2CC2)cc(=O)n2c1CCOCC2` has a remaining compound of 50.8%.
The remaining compound of `CC(=O)Nc1ccccc1C(c1ccc(C)o1)c1ccc(C)o1` is reported as 33.4%.
The remaining compound of `CN1C(=O)OC2(C)CC(C)(C)c3ccccc3C12C` (centres unmarked) is reported as 7.76%.
`COc1cc(-c2c3oc4cc(O)ccc4c3nc3c2c(O)nn3C2CCCCC2)ccc1O` has a remaining compound of 58.1%.

Single results of other studies
`CC(C)n1cnc(-c2ccc(F)cc2)c1-c1ncc(C(=O)Nc2ccc(N3CCN(C)CC3)cc2)[nH]1`: “patients with gastro-oesophageal reflux” 0% (human, idiopathic pulmonary fibrosis; 60 mg once daily, trial, treatment-emergent).

Excerpt of the above (sample 3):
`O=c1ccn([C@@H]2O[C@H](CO)[C@@H](O)[C@H]2O)c(=O)[nH]1` gave a viability of 99.9%.
`O=C(O)[C@@H]1CSCN1` has a viability of 87.7%.
`C[C@H]1CN(C[C@H](Cc2ccccc2)C(=O)NCC(=O)O)CC[C@@]1(C)c1cccc(O)c1` has a viability of 88.6%.
`Cn1c(=O)c2c(ncn2CCO)n(C)c1=O` has a viability of 96.1%.
For `C=C1CC[C@@H]2[C@](C)(CO)[C@H](O)CC[C@@]2(C)[C@@H]1C/C=C1/C(=O)OC[C@H]1O`, the viability was 9.52%.
`O=C(c1ccc(F)cc1)C1CCN(CCn2c(=O)[nH]c3ccccc3c2=O)CC1` gave a viability of 91.5%.
`CCN(CC)CCCC(C)Nc1c2ccc(Cl)cc2nc2ccc(OC)cc12` (centres unmarked) has a viability of 5.2%.
